# Measurements from different studies.
# Each numbered part is a random draw from the data of one study; scales do not carry over between parts. Several values in a cell are separate wells, animals, samples, runs or records. pIC50: −log10 of the molar value.
# UniProt P51813, sequence (whole entry, looked up): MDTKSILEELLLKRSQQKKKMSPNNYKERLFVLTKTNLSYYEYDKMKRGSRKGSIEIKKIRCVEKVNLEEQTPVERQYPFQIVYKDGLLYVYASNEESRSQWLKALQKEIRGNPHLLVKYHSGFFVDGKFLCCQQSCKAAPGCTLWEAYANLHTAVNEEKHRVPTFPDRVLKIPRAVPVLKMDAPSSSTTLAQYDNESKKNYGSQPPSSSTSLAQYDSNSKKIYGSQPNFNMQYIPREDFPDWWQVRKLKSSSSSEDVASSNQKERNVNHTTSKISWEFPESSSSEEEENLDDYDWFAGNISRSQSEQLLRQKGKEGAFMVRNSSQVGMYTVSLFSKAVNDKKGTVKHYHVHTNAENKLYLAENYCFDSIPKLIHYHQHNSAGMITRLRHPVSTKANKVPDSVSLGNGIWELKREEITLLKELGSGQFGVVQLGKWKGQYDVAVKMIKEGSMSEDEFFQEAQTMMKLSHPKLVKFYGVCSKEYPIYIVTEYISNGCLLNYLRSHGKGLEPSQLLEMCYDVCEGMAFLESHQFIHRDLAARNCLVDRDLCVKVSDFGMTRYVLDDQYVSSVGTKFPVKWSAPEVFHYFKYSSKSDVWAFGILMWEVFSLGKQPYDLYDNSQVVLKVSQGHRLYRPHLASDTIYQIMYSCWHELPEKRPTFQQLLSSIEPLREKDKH
# UniProt P22455, sequence (whole entry, looked up): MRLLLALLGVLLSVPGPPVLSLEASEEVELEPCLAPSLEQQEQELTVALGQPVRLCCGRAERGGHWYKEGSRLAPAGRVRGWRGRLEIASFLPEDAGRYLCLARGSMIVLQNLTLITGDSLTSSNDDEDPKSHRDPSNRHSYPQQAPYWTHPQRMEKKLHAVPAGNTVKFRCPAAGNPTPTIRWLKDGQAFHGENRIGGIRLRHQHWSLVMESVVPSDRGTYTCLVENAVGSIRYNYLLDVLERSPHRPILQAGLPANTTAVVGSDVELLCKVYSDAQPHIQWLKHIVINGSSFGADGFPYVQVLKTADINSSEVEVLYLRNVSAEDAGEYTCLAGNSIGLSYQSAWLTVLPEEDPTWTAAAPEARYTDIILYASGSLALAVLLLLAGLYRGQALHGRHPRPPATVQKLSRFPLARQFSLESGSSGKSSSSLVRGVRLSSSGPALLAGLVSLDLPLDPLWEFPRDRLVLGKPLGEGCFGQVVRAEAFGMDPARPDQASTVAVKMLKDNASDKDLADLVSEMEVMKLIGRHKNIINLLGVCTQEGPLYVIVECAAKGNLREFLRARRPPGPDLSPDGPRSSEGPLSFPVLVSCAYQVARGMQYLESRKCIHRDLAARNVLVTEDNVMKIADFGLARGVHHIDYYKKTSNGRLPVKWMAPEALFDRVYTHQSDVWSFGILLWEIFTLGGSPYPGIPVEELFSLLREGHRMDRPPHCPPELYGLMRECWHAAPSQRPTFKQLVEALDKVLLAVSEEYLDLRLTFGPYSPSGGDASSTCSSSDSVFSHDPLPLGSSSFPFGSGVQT
# UniProt P43250, sequence (whole entry, looked up): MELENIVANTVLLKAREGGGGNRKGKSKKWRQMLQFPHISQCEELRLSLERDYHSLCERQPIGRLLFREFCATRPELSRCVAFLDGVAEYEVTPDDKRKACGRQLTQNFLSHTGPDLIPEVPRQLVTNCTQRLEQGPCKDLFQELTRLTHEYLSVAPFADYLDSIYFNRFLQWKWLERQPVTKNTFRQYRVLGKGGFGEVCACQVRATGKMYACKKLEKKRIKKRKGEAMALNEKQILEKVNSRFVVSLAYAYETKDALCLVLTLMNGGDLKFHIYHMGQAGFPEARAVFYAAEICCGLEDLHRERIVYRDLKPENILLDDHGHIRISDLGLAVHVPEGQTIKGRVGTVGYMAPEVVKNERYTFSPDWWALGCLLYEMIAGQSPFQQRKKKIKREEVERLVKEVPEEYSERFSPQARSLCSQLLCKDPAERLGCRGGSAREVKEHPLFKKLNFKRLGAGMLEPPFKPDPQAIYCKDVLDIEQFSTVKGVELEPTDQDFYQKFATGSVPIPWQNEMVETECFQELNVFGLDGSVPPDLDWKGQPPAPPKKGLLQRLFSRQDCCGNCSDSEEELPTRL
# UniProt Q02156, sequence (whole entry, looked up): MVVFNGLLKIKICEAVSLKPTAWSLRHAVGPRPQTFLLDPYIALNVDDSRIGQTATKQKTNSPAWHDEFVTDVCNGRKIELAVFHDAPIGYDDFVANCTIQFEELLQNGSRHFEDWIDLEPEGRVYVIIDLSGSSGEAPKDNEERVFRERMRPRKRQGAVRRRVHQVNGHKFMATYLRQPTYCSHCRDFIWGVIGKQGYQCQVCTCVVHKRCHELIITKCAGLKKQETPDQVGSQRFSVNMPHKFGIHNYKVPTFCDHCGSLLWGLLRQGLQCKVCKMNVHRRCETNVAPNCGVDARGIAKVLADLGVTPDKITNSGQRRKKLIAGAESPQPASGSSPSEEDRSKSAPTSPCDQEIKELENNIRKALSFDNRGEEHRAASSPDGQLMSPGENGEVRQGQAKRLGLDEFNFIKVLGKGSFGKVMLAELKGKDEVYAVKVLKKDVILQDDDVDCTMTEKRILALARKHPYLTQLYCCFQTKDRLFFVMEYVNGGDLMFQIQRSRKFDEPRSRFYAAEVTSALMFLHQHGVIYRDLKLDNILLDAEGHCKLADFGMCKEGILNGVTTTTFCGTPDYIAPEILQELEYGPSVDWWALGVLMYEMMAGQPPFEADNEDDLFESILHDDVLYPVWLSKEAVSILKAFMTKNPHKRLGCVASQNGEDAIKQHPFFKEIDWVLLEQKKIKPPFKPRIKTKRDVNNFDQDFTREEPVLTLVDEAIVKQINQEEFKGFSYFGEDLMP
# UniProt Q13177, sequence (whole entry, looked up): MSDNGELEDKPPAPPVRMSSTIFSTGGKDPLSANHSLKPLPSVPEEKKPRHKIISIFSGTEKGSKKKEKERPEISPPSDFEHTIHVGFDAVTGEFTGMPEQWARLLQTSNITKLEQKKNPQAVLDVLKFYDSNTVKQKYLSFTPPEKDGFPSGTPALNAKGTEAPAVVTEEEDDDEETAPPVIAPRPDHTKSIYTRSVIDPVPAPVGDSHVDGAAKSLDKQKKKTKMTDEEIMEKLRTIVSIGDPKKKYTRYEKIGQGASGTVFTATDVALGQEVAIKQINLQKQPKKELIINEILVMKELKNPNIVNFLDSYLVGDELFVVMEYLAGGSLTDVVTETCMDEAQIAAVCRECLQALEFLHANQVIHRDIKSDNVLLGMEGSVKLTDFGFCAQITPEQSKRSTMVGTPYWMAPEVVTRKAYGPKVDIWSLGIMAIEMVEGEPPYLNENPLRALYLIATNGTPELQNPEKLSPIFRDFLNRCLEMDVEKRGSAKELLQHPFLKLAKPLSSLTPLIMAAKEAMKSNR
# UniProt Q9UQB9, sequence (whole entry, looked up): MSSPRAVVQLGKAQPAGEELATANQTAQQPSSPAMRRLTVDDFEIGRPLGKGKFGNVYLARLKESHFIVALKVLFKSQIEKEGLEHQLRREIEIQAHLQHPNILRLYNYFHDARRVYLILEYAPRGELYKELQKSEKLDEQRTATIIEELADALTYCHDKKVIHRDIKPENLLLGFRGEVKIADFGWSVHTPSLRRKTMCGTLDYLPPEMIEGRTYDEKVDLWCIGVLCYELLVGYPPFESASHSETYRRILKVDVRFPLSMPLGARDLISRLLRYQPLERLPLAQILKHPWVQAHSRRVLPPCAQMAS
# UniProt Q9UPE1, sequence (whole entry, looked up): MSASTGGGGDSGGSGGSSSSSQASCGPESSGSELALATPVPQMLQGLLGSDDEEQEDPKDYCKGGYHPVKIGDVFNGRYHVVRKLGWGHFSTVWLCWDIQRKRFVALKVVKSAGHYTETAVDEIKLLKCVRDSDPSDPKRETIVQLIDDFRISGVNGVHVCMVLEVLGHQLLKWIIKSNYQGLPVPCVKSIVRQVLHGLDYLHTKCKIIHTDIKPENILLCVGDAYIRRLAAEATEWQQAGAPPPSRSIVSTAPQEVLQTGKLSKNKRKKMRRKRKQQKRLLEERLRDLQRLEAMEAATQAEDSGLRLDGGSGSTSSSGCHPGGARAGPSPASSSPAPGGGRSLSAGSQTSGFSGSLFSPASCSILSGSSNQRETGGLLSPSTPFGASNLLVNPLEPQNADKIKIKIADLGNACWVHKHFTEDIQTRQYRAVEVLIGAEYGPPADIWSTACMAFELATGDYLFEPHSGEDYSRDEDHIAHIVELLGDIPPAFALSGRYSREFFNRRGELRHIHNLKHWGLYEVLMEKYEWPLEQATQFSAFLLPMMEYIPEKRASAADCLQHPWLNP

# Set 1
# Structure (SMILES): CNC(=O)c1ccc(-c2cnn3ccc(C(=O)N(C)c4ccc(Cl)c(C(=O)OC)c4)cc23)cc1
# Organism: Cryptosporidium parvum
# Species: neonatal calves
# Dose: dose not given
# Reading: direction not given
conditions,fecal consistency score
day 10 post-treatment,1 and 2
day 13 post-treatment,1 and 2
day 4 post-treatment,1 and 2
day 11 post-treatment,1
day 12 post-treatment,1 and 2
day 1 post-treatment,2 and 3

# Set 2
# Species: human
# Medium: microsomes or S9
# Tested at: 2 µM
# Time: 0.5 h
Compound,remaining compound
COC(=O)[C@@]12Cc3ccccc3[C@@H](C1)N(C(C)(C)C)O2,0.00757%
O=C1N=C(O)N=C(O)/C1=C\NNC(=O)c1ccccc1O,88.8%
O=c1ccc2ccc3occc3c2o1,37%

# Set 3
# Compound: N/C(=N\[N+](=O)[O-])N/N=C\c1ccc(-c2cccc([N+](=O)[O-])c2)o1
# Read-out: enzyme activity
# Mode: inhibitor
# Tested at: 0.5 µM
# Reference: control
target,remaining activity [%]
"PAK2 (Homo sapiens, UniProt Q13177)",103
"PRKCE (Homo sapiens, UniProt Q02156)",90.5
"PIM2 (Homo sapiens, UniProt Q9P1W9)",106
"NUAK1 (Homo sapiens, UniProt O60285)",96.4
"EPHA7 (Homo sapiens, UniProt Q15375)",97.9
"RPS6KA1 (Homo sapiens, UniProt Q15418)",86.3
"Aurora kinase C (AURKC, Homo sapiens, UniProt Q9UQB9)",90.5
"GRK6 (Homo sapiens, UniProt P43250)",98.3
"CSF1R (Homo sapiens, UniProt P07333)",94.5
"RPS6KB1 (Homo sapiens, UniProt P23443)",100
"PRKCG (Homo sapiens, UniProt P05129)",96.4
"BMX (Homo sapiens, UniProt P51813)",90.1
"SRPK3 (Homo sapiens, UniProt Q9UPE1)",100
"GSK3A (Homo sapiens, UniProt P49840)",108
"EPHB2 (Homo sapiens, UniProt P29323)",84.6
"SGK1 (Homo sapiens, UniProt O00141)",92.4
"FLT3 (Homo sapiens, UniProt P36888)",99.3
"FGFR4 (Homo sapiens, UniProt P22455)",106
"MYLK (Homo sapiens, UniProt Q15746)",92.5
"GRK2 (Homo sapiens, UniProt P25098)",98.9
"CSK (Homo sapiens, UniProt P41240)",98.5

# Set 4
# Target: Eukaryotic initiation factor 4A-III (Homo sapiens, UniProt P38919)
# UniProt P38919, sequence (whole entry, looked up): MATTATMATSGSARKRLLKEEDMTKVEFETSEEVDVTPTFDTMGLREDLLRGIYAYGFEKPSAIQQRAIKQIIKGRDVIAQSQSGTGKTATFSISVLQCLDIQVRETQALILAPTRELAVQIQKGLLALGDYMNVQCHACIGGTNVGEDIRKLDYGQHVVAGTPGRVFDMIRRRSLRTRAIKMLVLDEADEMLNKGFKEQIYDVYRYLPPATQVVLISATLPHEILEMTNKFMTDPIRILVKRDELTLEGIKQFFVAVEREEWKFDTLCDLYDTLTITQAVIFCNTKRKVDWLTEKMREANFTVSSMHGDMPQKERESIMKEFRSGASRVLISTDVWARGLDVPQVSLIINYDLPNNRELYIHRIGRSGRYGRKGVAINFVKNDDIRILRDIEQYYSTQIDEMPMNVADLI
# Read-out: RNA clamping
# Technique: fluorescence polarization
# Tested at: concentration not given
# Setting: mean of two replicates
# Together with: FAM-labelled poly r(AG)8 RNA
SMILES,fluorescence polarization change
COc1ccc([C@]23Oc4cc(OC)cc(OC)c4[C@](O)([C@H](c4ccccc4)[C@H]2C(=O)NCCCCNC(=O)c2ccccc2)[C@H]3O)cc1,1.3 mP
COc1ccc([C@@]23Oc4cc(OC)cc(OC)c4[C@@]24NC(C)=NC4=C(C=O)[C@H]3c2ccccc2)cc1,23 mP
COc1ccc([C@@]23Oc4cc(OC)cc(OC)c4[C@]2(O)[C@H](O)C[C@H]3c2ccccc2)cc1,45 mP
COC(=O)[C@@H]1[C@@H](c2ccccc2)[C@]2(c3ccc(OC)cc3)Oc3cc(OC)cc(OC)c3[C@@]23OC(c2ccc(Cl)nc2)=N[C@@]13O,9.4 mP
COC(=O)[C@@H]1[C@@H](c2ccccc2)[C@]2(c3ccc(OC)cc3)Oc3cc(OC)cc(OC)c3[C@@]23N=C(C)N[C@@]13O,53.2 mP and 61.4 mP
COCc1nc2c(c(=O)[nH]1)[C@@H](c1ccccc1)[C@]1(c3ccc(OC)cc3)Oc3cc(OC)cc(OC)c3[C@]21O,32.6 mP
CCOC(=O)COc1nc(-c2ccccc2)nc2c1[C@@H](c1ccccc1)[C@]1(c3ccc(OC)cc3)Oc3cc(OC)cc(OC)c3[C@]21O,4.7 mP
COc1ccc([C@@]23Oc4cc(OC)cc(OC)c4[C@]2(OC)c2nc(-c4ccccc4)nc(OC)c2[C@H]3c2ccccc2)cc1,0.6 mP
COC(=O)[C@H]1[C@@H](O)[C@@]2(O)c3c(OC)cc(OC)cc3O[C@@]2(c2ccc(Br)cc2)[C@@H]1c1ccccc1,34.3 mP

# Mixed results
# HTR1B: 5-hydroxytryptamine receptor 1B (HTR1B, Homo sapiens, UniProt P28222)
# UniProt P28222, sequence (whole entry, looked up): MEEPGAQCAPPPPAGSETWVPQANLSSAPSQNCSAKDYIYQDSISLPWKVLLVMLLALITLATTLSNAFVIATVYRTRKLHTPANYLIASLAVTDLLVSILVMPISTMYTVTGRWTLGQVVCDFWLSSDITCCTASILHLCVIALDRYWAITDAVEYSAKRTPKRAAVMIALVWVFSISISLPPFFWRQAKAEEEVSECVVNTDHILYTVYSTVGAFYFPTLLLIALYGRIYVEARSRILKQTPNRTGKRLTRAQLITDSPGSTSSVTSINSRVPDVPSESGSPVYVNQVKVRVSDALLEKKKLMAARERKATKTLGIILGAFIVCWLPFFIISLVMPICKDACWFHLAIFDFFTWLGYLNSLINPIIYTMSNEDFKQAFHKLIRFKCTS
Structure (SMILES),tested on,test,test system,conditions,quantity,value
CNC(=O)c1cc(C(=O)NC2CC2)cn(Cc2ccccc2)c1=O,HTR1B,"binding, radioligand binding",,10 µM,inhibition,-3.67%
O=C1CCC(N2Cc3c(ccc4c3OCC43CCN(Cc4ccccc4)CC3)C2=O)C(=O)N1 (centres unmarked),,,"ICR mice, male, plasma","intravenous, 1.0 mg/kg",steady-state volume of distribution,5120 mL/kg and 3630 mL/kg
CN(C)C(=O)Cn1cc(-c2nc([C@@](C)(c3ccc(-c4cnc(N)nc4)cc3)C3CC3)no2)cn1,"CDPK1 (Plasmodium falciparum, UniProt P62344)","cell-free assay, competition with immobilised ligand",,1 µM,remaining binding,58%
N#CC1(c2ccccn2)CCN(Cc2cc(C(=O)O)c(=O)n3ccccc23)CC1,HTR1B,"binding, radioligand binding",,10 µM,inhibition,2.72%
C=CC(=O)Nc1ccc2[nH]c(=O)n(C3CCN(Cc4ccc(-c5ccc6c(c5)NC(=O)CO6)cc4)CC3)c2c1,"AKT2 (Homo sapiens, UniProt P31751)","target engagement in cells, BRET",,,pIC50,5.08

# Some of these lines once more (set 3):
target,remaining activity [%]
"GRK6 (Homo sapiens, UniProt P43250)",98.3
"CSF1R (Homo sapiens, UniProt P07333)",94.5
"RPS6KB1 (Homo sapiens, UniProt P23443)",100
"PRKCG (Homo sapiens, UniProt P05129)",96.4
"BMX (Homo sapiens, UniProt P51813)",90.1
"SRPK3 (Homo sapiens, UniProt Q9UPE1)",100
